Measurements from different studies.
Each numbered part is a random draw from the data of one study; scales do not carry over between parts.

Sample 1 — method: universal PBM; molecule type: double-stranded DNA, one strand shown; matrix: in vitro; tested at: not given; direction: higher = stronger binding
Target: Sal-like protein 4, full length isoform B (SALL4, Homo sapiens, UniProt Q9UJQ4-2, residues 1-616)
Notes: 8-mer, flanks averaged, mean of replicates
| Sequence | E-score |
| --- | --- |
| GCCAAGAA | -0.13 |
| AAAGTCTA | 0.0604 |
| AGCCGGCC | -0.301 |
| AATCGTCA | 0.155 |
| AAAAAGGA | 0.0662 |
| GTACCCAC | -0.0564 |
| AATTCGTG | 0.0888 |
| AGGACCGC | -0.216 |
| ATTCAAGG | 0.0618 |
| CAGCGCGG | -0.366 |
| ATTGTTCC | 0.0175 |
| CACATTTC | 0.118 |
| GATCCAGC | -0.305 |
| AAGTCGTG | -0.0251 |
| CCGGCTAC | -0.285 |
| CTAATTTA | 0.288 |
| GGAGATTA | 0.111 |
| AGCATCGA | 0.0342 |
| CTTCCACA | 0.0255 |
| ATAGATGC | 0.0776 |
| ATTTCAAA | 0.303 |
| ATCAGTAG | -0.0165 |
| GGATCGAA | -0.105 |
| CACTTTGC | -0.00479 |
| ATCCTCCG | -0.238 |

Sample 2 — method: RNA Bind-n-Seq; molecule type: RNA; matrix: in vitro; tested at: 365 nM; relative to: no-protein control; direction: higher = stronger binding
Target: RNA binding protein fox-1 homolog 2, RRM domain, GST-SBP tag (RBFOX2, Homo sapiens, UniProt O43251-10, residues 100-194)
Notes: natural RNA segment, single round, ends assumed
Residues (chain): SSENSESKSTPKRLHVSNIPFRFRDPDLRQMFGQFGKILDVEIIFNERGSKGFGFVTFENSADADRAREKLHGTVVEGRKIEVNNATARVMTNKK
| Sequence | RBNS enrichment (R) |
| --- | --- |
| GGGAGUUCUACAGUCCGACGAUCGUACUAGUCUGUGUGGGACUGUACACACUUUAUUUACUUCGUUUUGGUUAAGUUGGCUUCUGUUUCUAGUUGAGGAGUUUCCUAAAAGUUCAUAACAGUGCCAUUGUCUUUGGAAUUCUCGGGUGCCAA | 0.878 |
| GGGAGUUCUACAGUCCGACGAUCUCUGCUAUCCCCAUGGCCAUGAAGGCUCCCUACCCCCAGAUGCCCACUCUCUCCACCUUUAUUUGCUUCUGAGUUCUUGUUUUUGAGCAAUAAACAGAAAGUCACCACUUUGGAAUUCUCGGGUGCCAA | 0.69 |
| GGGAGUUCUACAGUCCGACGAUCGAUCAGUGUACAGAUUGUAUAUAGCGUCAUUUUUACGGAAACCCUUUUGGCGUGCAUAAGGAUCACUGUGUACACAUUGGCCAAGUGCUUCUGUAGAUAAUGUCUGUGGAUGGAAUUCUCGGGUGCCAA | 0.289 |
| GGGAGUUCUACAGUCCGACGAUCAAGGAGGGUUUCAAAGAAAAAGGAUUUUGUUUAAAAUACUUUAAAAAUGUUAUUUCCUGCAUCCCUUGGCUGUGAUGCCCCUCUCCCGAUUUCCCAGGGGCUCUGGGAGGUGGAAUUCUCGGGUGCCAA | 0.332 |
| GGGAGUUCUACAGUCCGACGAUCAGGGGGCAGAGACCACAGGAGAGGUUCUUGCCUGCAUCCUCCCAUGAGGGUGUGGCCAGUUCCCUGGUUCUGUGCCAUGCUGCUGCUUGGUGGCAUUGGUUAGGAAUGGGUGGAAUUCUCGGGUGCCAA | 0.724 |
| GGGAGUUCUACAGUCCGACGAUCACUCCACCGAAGAGGUGCGCCACUGGGAGCCACCCCAGCGCCAGGCGCCCGUCCAGGGACACACACAGUCUUCACUGUGCUGCAGCCAGAUGAAGUCUCUCAGAUGGGUGUGGAAUUCUCGGGUGCCAA | 0.295 |
| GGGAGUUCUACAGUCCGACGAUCGGCCCUCCUCCCCGGCCCUCCCUGGCCCGGCCACUCCGAAGGCAGGGAGGAGGACUUGGCAACUGGCUUUUCUCCUGUGGAGUCGUCACACGCCAUCCAGCAGCGCUAAGUGGAAUUCUCGGGUGCCAA | 0.198 |
| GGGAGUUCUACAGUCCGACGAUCUUUGAAGUAUUAGAACAAAGUGUGCCAUGAGAGAAAAACUUAACAAGGAGUUUUGAAAAGAAAUGCAAAGAACAAAACUACAACACUAUUUUUUAAAAAGUUGAGUAUCUUGGAAUUCUCGGGUGCCAA | 1.32 |

Sample 3 — method: RNA Bind-n-Seq; molecule type: RNA; matrix: in vitro; tested at: 100 nM; relative to: input RNA pool; direction: higher = stronger binding
Target: RING finger protein unkempt homolog, zinc fingers 1-6, SBP tag (UNK, Homo sapiens, UniProt Q9C0B0, residues 30-357)
UniProt Q9C0B0, sequence (30-357, looked up): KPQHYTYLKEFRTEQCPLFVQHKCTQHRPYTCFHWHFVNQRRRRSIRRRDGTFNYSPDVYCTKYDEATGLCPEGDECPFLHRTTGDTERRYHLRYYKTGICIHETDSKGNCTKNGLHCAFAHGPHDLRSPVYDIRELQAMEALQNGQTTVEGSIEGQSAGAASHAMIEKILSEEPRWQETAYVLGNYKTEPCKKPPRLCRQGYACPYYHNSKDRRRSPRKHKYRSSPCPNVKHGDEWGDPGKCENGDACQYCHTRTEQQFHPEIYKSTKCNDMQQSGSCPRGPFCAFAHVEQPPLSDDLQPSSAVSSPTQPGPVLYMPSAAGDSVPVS
Notes: RNA with constant flanks, vertebrate orthologous sites, ends assumed
| Sequence | bound/input enrichment |
| --- | --- |
| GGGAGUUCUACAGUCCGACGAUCCAAGCUCAUUAAGAGAAGCAGUUUUUAAACUGUAUUUAUUUAUGUUUGUAAACUUGUACAUAGUAACAACCCUGCAAAUGUUUUGUUACUCUAUUUUACAUCUUUUAGGUUCUUUGGGGGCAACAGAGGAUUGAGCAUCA | 0.631 ratio |
| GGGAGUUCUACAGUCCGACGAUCGCACUACCUGUCCAAAUUUCACAACACUGAAUGCAAAGUAGUAAUUUUUAUAGUCACGAUAAGGUAGCUUUAGGGCAGUAUCACUAUGAUUUUAUUAGAGCAGGUUUUGAAAAUGUACAACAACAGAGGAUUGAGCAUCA | 1.45 ratio |
| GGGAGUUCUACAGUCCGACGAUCAAAUCAGUAGAAUUACAUAAUACUAAAGUUGCAGUUAAAGGAUUUCCAAGUAUGUGUUGGUAGUUACUAAAAGAAUUAUAGCUGUUAUUGCCUUGUAUUUAUAGCCCUUGUUUCAGGUUUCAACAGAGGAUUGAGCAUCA | 0.724 ratio |
| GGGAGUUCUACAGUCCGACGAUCAUUCAAACCUGUGGUACCCUGGCCUCAUGUUGAAGGAGUAGAAGUGGACUUAGAGUCUAUUAGAAGAAAAAACAAAGCCAAAAAUGAACAGGAGCGCCAUGCUGGAGGAGAUUCCCAGAACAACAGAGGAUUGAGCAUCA | 0.454 ratio |
| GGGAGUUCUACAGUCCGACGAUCAGUGGAUGCAGCAUAGAAACAUCCAAGGUACUGACUGCGGCUUUAGAUACUUCAUUAGUGUGAAAGUCACAUUUCUCUAUGUGAGGAUACAUAUCUUUGAGUAAAUUACAUCUUCAACUUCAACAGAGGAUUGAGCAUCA | 0.592 ratio |
| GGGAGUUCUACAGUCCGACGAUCGUGACUUUGGACGUCCGCUCCUCCCAGGUGCGGUGAGUGCUUAACCUCCGGUCUUGCGGCUUAGCUUUUCUCUCGGGGACUCGAGGCCUCUGUUGCAACCAUGCUCCGCCAGAUCAUCGGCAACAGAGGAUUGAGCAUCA | 0.61 ratio |
| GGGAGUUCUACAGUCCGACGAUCCUCCCCGUUACCCCUAAAGUAGAACUUUUUAAAAUUAUGUCACCACCACUUCUAAAAAUUUAGCAAUAUUAGAAGAAAAUGCUCAUGAAGAAAGAAAUUUUGCUCAUUGUUUUGCAAACCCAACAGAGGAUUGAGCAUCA | 0.951 ratio |
| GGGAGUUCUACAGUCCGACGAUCGCAUAUGCCGCUAUCACCAAAAGCAAACUACCACUUUUCAAAUUUCAUUCAGAGCCAUUUUAGUGUUUCCUAUUCCCUACCUUUCCCACUAUUUUCAAUGAUGAAAUAUCCUUUUUCCUUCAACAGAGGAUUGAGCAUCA | 2.14 ratio |

Sample 4 — method: aptamer microarray, sandwich; molecule type: DNA with 2'F-ANA; matrix: in vitro; tested at: 200 nM; with: Cy3 exosite-II aptamer, 400 nM; direction: higher = stronger binding; sequence: GGTTGGTGTGGTTGG
Target: Prothrombin, mature alpha-thrombin (F2, Homo sapiens, UniProt P00734)
Notes: whole 15-mer aptamer, many near background
| Modification | mean fluorescence intensity [a.u.] |
| --- | --- |
| 2'F-ANA at 3 5 6 7 8 9 | 142 |
| 2'F-ANA at 3 5 10 11 12 14 | 53.5 |
| 2'F-ANA at 2 6 8 9 10 14 | 98.7 |
| 2'F-ANA at 1 2 3 5 7 8 12 15 | 129 |
| 2'F-ANA at 2 4 7 8 9 10 13 14 15 | 70.3 |
| 2'F-ANA at 3 5 6 7 8 9 12 13 | 172 |
| 2'F-ANA at 1 2 7 8 10 11 13 | 51.7 |
| 2'F-ANA at 2 3 10 13 14 | 289 |
| 2'F-ANA at 1 2 4 5 9 12 13 14 | 47.7 |
| 2'F-ANA at 2 4 5 8 14 15 | 48.7 |
| 2'F-ANA at 2 4 8 9 10 11 13 15 | 125 |
| 2'F-ANA at 1 2 3 5 6 7 8 9 11 13 | 56.4 |
| 2'F-ANA at 2 4 6 8 12 13 14 | 111 |
| 2'F-ANA at 5 12 14 15 | 47.4 |
| 2'F-ANA at 1 5 6 9 10 13 14 15 | 51.7 |
| 2'F-ANA at 1 2 3 10 12 13 14 15 | 67.2 |
| 2'F-ANA at 3 9 10 11 12 13 15 | 538 |
| 2'F-ANA at 1 4 6 7 11 | 90.4 |
| 2'F-ANA at 1 2 3 4 8 9 10 14 | 52.7 |
| 2'F-ANA at 2 4 5 12 | 178 |
| 2'F-ANA at 4 6 7 9 11 13 14 15 | 67.1 |
| 2'F-ANA at 3 7 10 12 15 | 711 |
| 2'F-ANA at 1 2 3 4 5 7 8 9 10 13 14 | 51.4 |
